# Measurements from different studies.
# Compare with care: the assays were run in different laboratories.
# Effect on: cell growth or viability
Structure (SMILES),cell line,assay,conditions,quantity,value
CNc1ncc2c(/C=C/C(=O)N3CCCC3)nn(CC3CCCC3)c2n1,FLO-1,resazurin,5 days,EC50,16.4 µM
O=C(Nc1ccc(Oc2nnc(-c3ccc(Cl)cc3)c3ccccc23)cc1)c1ccccc1,MCF7,MTT,"0.312 µM, 24 h",viability,4.69%
CCCOc1ccc2c(C)c(CC)c(=O)oc2c1C,PC-3,MTT,31.25 µg/mL,viability,99.1%
O=C(O)c1ccc(-c2nn(Cc3ccccc3)c3ccccc23)o1,RBE,ATP luminescence,"46 µM, 72 h",inhibition,4%
Nc1ncnc2c1c(/C=C/C(=O)N1CCCCC1)nn2CC1CCCC1,FLO-1,resazurin,5 days,EC50,> 30 µM
O=C(CCCC[C@H]1SC[C@H]2NC(=O)N[C@H]21)NCCOCCOCCOc1cccc(Cn2nc(-c3ccc(CO)o3)c3ccccc32)c1,RBE,ATP luminescence,"46 µM, 72 h",inhibition,66%
C=CCOc1ccc2c(C)c(CC)c(=O)oc2c1C,PC-3,MTT,1000 µg/mL,viability,6.94%
CCC(=CCc1c(O)cc2c(c1O)C(=O)C[C@@H](c1ccccc1O)O2)CC,HeLa,MTT,"0.938 µM, 48 h",inhibition,-6.75%
CC(=NNC(N)=S)c1ccc(Nc2nnc(-c3ccc(Cl)cc3)c3ccccc23)cc1,MCF7,MTT,"0.156 µM, 24 h",viability,50.5%
CNc1ncc2c(/C=C/C(=O)N3CCC(OC)CC3)nn(CC3OCCO3)c2n1,FLO-1,resazurin,5 days,EC50,> 30 µM
CC(=NNC(=O)c1ccncc1)c1ccc(Nc2nnc(-c3ccc(Cl)cc3)c3ccccc23)cc1,MCF7,MTT,"1.25 µM, 24 h",viability,4.65%
Cc1[nH]c(C)c(-c2ccc(OCc3cc(F)cc(F)c3)nc2)c(=O)c1Br,HEK293,,,IC50,> 10 µM
CC(C)(C)c1nc(-c2cccc(NS(=O)(=O)c3c(F)cccc3F)c2F)c(-c2ccnc(N)n2)s1,WM 266-4,MTT,"6.3 µM, 48 h",viability,56.9%
CC(=NNC(=O)c1cccnc1)c1ccc(Nc2nnc(-c3ccc(Cl)cc3)c3ccccc23)cc1,MCF7,MTT,"5 µM, 24 h",viability,4.83%
Cn1nnc2c(C(N)=O)ncn2c1=O,MB002,,7 days,IC50,> 10 µM
CC(=NNC(=O)c1ccccc1)c1ccc(Nc2nnc(-c3ccc(Cl)cc3)c3ccccc23)cc1,MCF7,MTT,"0.625 µM, 24 h",viability,98.6%
C=CCNC(=S)NNC(=O)COc1ccc2c(C)c(CC)c(=O)oc2c1C,PC-3,MTT,125 µg/mL,viability,24.3%
Cc1[nH]c(C)c(-c2ccc(-c3ccc(OC(F)(F)F)cc3)nc2)c(=O)c1Cl,HEK293,,,IC50,> 10 µM
C[C@@H]1CC[C@@H]([C@](O)(CNCc2cccc3ccccc23)COCc2ccccc2)[C@H](OCc2ccccc2)C1,HeLa,MTT,"10 µM, 72 h",inhibition,97.1%
CC(C)N(Cc1cnc2nc(N)nc(N)c2n1)c1ccc(Cl)c(Cl)c1,HEK293,,,IC50,> 10 µM
CC(=O)Nc1ccc(Oc2nnc(-c3ccc(Cl)cc3)c3ccccc23)cc1,MCF7,MTT,"0.156 µM, 24 h",viability,27.3%
Cc1[nH]c(C)c(-c2ccc(OCc3ccccc3)cc2)c(=O)c1Br,HEK293,,,IC50,> 10 µM
O=C(C=Cc1ccccc1)Nc1ccc(Oc2nnc(-c3ccc(Cl)cc3)c3ccccc23)cc1,MCF7,MTT,"0.625 µM, 24 h",viability,94.7%
C[C@@H]1CC[C@@H]([C@](C)(O)CNCc2cccc(F)c2)[C@H](OCc2ccccc2)C1,HeLa,MTT,"30 µM, 72 h",inhibition,98.8%

# Some of these lines once more:
Structure (SMILES),cell line,assay,conditions,quantity,value
C[C@@H]1CC[C@@H]([C@](O)(CNCc2cccc3ccccc23)COCc2ccccc2)[C@H](OCc2ccccc2)C1,HeLa,MTT,"10 µM, 72 h",inhibition,97.1%
CC(C)N(Cc1cnc2nc(N)nc(N)c2n1)c1ccc(Cl)c(Cl)c1,HEK293,,,IC50,> 10 µM
CC(=O)Nc1ccc(Oc2nnc(-c3ccc(Cl)cc3)c3ccccc23)cc1,MCF7,MTT,"0.156 µM, 24 h",viability,27.3%
Cc1[nH]c(C)c(-c2ccc(OCc3ccccc3)cc2)c(=O)c1Br,HEK293,,,IC50,> 10 µM
